Measured values gathered from unrelated publications.
Parts stem from different laboratories: compare values within a part only. Several values in a cell are separate wells, animals, samples, runs or records.

Series 1
SMILES: COc1ccc(COc2ccc(Cc3cnc(N)nc3N)cc2OC)cc1
Effect on: enzyme activity
Action: inhibitor
Tested at: 0.5 µM
Reference: control
target	remaining activity [%]
Cyclin-dependent kinase 4, with cyclin D1 (CDK4, Homo sapiens, UniProt P11802)	97.4
cGMP-dependent protein kinase 1, isoform beta (PRKG1, Homo sapiens, UniProt Q13976)	91.7
Calcium/calmodulin-dependent protein kinase kinase 2 (CAMKK2, Homo sapiens, UniProt Q96RR4)	103
TGF-beta receptor type-1 (TGFBR1, Homo sapiens, UniProt P36897)	97
Death-associated protein kinase 2 (DAPK2, Homo sapiens, UniProt Q9UIK4)	95.3
Mitogen-activated protein kinase 9 (MAPK9, Homo sapiens, UniProt P45984)	106
Protein kinase C alpha type (PRKCA, Homo sapiens, UniProt P17252)	95.9
Tyrosine-protein kinase Lyn, isoform B (LYN, Homo sapiens, UniProt P07948)	98.1
G protein-coupled receptor kinase 3 (GRK3, Homo sapiens, UniProt P35626)	103
Serine/threonine-protein kinase Chk2 (CHEK2, Homo sapiens, UniProt O96017)	107
Death-associated protein kinase 1 (DAPK1, Homo sapiens, UniProt P53355)	102
Serine/threonine-protein kinase 10 (STK10, Homo sapiens, UniProt O94804)	100
cAMP-dependent protein kinase catalytic subunit alpha (PRKACA, Homo sapiens, UniProt P17612)	104
Protein kinase C beta type, isoform beta-I (PRKCB, Homo sapiens, UniProt P05771)	102
Inhibitor of nuclear factor kappa-B kinase subunit beta (IKBKB, Homo sapiens, UniProt O14920)	99.9
Calcium/calmodulin-dependent protein kinase type II subunit delta (CAMK2D, Homo sapiens, UniProt Q13557)	109
Cyclin-dependent kinase 5, with p25 (CDK5, Homo sapiens, UniProt Q00535)	103
TGF-beta receptor type-2 (TGFBR2, Homo sapiens, UniProt P37173)	127
Serine/threonine-protein kinase Nek2 (NEK2, Homo sapiens, UniProt P51955)	99.2
Serine/threonine-protein kinase OSR1 (OXSR1, Homo sapiens, UniProt O95747)	103
Serine/threonine-protein kinase STK11 (STK11, Homo sapiens, UniProt Q15831)	103
Mitogen-activated protein kinase kinase kinase 3 (MAP3K3, Homo sapiens, UniProt Q99759)	97.8

Series 2
Compound: C[C@@H]1CN(c2ccc(-c3cc(C(=O)NCCOCCOCCOCCOCCOCCOCCOCCOCCOCCNC(=O)/C=C/c4[nH]cc(C(=O)N[C@@H](CC(N)=O)c5ccc(F)c(Cl)c5)c4-c4ccc(Cl)cc4F)ccc3F)cc2NC(=O)c2c[nH]c(=O)cc2C(F)(F)F)C[C@H](C)N1C
Action: degrader
Time: 24 h
WDR5/DCAF1: WDR5/DCAF1 (Homo sapiens, UniProt P61964+Q9Y4B6)
WDR5: WD repeat-containing protein 5 (WDR5, Homo sapiens, UniProt P61964)
target	assay	setting	scale	remaining protein level
WDR5/DCAF1	HiBiT luminescence	5.15 nM		101% and 82.8% and 113% and 92.8%
WDR5/DCAF1	HiBiT luminescence	2 nM		103% and 112% and 95.3% and 88.5%
WDR5	Jess capillary immunoassay, refers to: WDR5 over vinculin	331 nM	reference: DMSO	59.6% and 54.1% and 63.6%
WDR5	Jess capillary immunoassay, refers to: WDR5 over vinculin	4270 nM	reference: DMSO	49% and 52.5% and 52.1%

Series 3
Structure (SMILES): CCN(c1nc(N)c(C(=O)N=C(N)N)nc1Cl)C(C)C
Effect on: β-arrestin recruitment
Action: agonist
Method: PRESTO-Tango
Tested at: 10 µM
Reference: untreated
target	fold over basal
Vasopressin V1a receptor (AVPR1A, Homo sapiens, UniProt P37288)	1.31
Galanin receptor type 2 (GALR2, Homo sapiens, UniProt O43603)	0.43 fold
5-hydroxytryptamine receptor 1D (HTR1D, Homo sapiens, UniProt P28221)	0.83
Neuropeptide Y receptor type 5 (NPY5R, Homo sapiens, UniProt Q15761)	0.66
Sphingosine 1-phosphate receptor 2 (S1PR2, Homo sapiens, UniProt O95136)	0.21

Series 4
SMILES: COc1ccc2[nH]c3c4[nH]c5ccc(OC)cc5c4c4c(c3c2c1)C(=O)NC4=O
Effect on: binding
Method: competition with immobilised ligand
Tested at: 1 µM
target	remaining binding [%]
Mitogen-activated protein kinase 9 (MAPK9, Homo sapiens, UniProt P45984)	55
Tyrosine-protein kinase HCK (HCK, Homo sapiens, UniProt P08631)	74
Myosin light chain kinase (MYLK3, Homo sapiens, UniProt Q32MK0)	16
Tyrosine-protein kinase Tec (TEC, Homo sapiens, UniProt P42680)	88

Series 5
Target: Diamine acetyltransferase 1 (Homo sapiens, UniProt P21673)
Action: inhibitor
Tested at: 10 µM
Reference: control
Residues (P21673 1-171): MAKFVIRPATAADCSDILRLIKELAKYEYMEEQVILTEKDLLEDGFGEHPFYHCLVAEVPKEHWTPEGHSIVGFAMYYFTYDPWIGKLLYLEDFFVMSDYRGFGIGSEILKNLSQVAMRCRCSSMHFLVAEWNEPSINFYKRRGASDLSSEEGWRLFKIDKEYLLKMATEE
SMILES	remaining activity [%]
C=C(C)[C@@H]1CC[C@]2(C(=O)O)CC[C@]3(C)[C@H](CC[C@@H]4[C@@]5(C)CC[C@H](O)C(C)(C)[C@@H]5CC[C@]43C)[C@@H]12	83.4
CCCCCCCCCCCCCCCCCCCCCCCC(=O)OC	96.6
CC1=C[C@H](O)CC(C)(C)[C@H]1/C=C/C(C)=C/C=C/C(C)=C/C=C/C=C(C)/C=C/C=C(C)/C=C/C1=C(C)C[C@@H](O)CC1(C)C	96.9
O=C(O)CC(O)(CC(=O)OCc1ccc(O[C@@H]2O[C@H](CO)[C@@H](O)[C@H](O)[C@H]2O)cc1)C(=O)OCc1ccc(O[C@@H]2O[C@H](CO)[C@@H](O)[C@H](O)[C@H]2O)cc1 (some centres unmarked)	106

Series 6
SMILES: COc1cc(-c2cn(C3CCc4ccccc4N(CC(F)(F)F)C3=O)nn2)ccc1-n1ccc(C)n1 (centres unmarked)
Method: competition with immobilised ligand
Tested at: 1 µM
target	assay	remaining binding [%]
Inhibitor of nuclear factor kappa-B kinase subunit beta (IKBKB, Homo sapiens, UniProt O14920)	cell-free assay	99
Cyclin-dependent kinase-like 5 (CDKL5, Homo sapiens, UniProt O76039)	binding	87
Tyrosine-protein kinase ABL1, non-phosphorylated (ABL1, Homo sapiens, UniProt P00519, F317I)	binding	65
Mitogen-activated protein kinase kinase kinase 20 (MAP3K20, Homo sapiens, UniProt Q9NYL2)	cell-free assay	85
Tyrosine-protein kinase ABL1, non-phosphorylated (ABL1, Homo sapiens, UniProt P00519, H396P)	binding	47

A few entries again (series 3):
target	fold over basal
Sphingosine 1-phosphate receptor 2 (S1PR2, Homo sapiens, UniProt O95136)	0.21
Neuropeptide Y receptor type 5 (NPY5R, Homo sapiens, UniProt Q15761)	0.66
Vasopressin V1a receptor (AVPR1A, Homo sapiens, UniProt P37288)	1.31
Galanin receptor type 2 (GALR2, Homo sapiens, UniProt O43603)	0.43 fold
5-hydroxytryptamine receptor 1D (HTR1D, Homo sapiens, UniProt P28221)	0.83
